Measured values of several laboratories.
A part holds a random share of what one study measured. Several values in a cell are separate wells, animals, samples, runs or records.
UniProt P35626, sequence (whole entry, looked up): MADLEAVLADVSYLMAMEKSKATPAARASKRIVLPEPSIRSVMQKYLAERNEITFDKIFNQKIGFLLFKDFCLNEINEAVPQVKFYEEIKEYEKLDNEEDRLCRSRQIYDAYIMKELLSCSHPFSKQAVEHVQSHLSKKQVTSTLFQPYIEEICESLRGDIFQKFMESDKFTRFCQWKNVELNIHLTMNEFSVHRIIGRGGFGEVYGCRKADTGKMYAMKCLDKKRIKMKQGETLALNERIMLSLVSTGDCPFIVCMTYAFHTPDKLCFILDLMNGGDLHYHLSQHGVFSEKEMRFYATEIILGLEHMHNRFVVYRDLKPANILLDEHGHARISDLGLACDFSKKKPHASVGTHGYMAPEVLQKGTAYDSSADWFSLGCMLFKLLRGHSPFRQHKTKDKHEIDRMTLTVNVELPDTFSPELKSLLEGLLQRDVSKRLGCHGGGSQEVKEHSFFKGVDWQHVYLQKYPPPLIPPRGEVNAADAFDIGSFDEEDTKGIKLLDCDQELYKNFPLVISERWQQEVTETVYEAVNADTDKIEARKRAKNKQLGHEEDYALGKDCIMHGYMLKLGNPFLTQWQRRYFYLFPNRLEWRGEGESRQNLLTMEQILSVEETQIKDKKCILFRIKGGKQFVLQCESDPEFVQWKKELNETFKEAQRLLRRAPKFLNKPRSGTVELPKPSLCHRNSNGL
UniProt Q9NRH2, sequence (whole entry, looked up): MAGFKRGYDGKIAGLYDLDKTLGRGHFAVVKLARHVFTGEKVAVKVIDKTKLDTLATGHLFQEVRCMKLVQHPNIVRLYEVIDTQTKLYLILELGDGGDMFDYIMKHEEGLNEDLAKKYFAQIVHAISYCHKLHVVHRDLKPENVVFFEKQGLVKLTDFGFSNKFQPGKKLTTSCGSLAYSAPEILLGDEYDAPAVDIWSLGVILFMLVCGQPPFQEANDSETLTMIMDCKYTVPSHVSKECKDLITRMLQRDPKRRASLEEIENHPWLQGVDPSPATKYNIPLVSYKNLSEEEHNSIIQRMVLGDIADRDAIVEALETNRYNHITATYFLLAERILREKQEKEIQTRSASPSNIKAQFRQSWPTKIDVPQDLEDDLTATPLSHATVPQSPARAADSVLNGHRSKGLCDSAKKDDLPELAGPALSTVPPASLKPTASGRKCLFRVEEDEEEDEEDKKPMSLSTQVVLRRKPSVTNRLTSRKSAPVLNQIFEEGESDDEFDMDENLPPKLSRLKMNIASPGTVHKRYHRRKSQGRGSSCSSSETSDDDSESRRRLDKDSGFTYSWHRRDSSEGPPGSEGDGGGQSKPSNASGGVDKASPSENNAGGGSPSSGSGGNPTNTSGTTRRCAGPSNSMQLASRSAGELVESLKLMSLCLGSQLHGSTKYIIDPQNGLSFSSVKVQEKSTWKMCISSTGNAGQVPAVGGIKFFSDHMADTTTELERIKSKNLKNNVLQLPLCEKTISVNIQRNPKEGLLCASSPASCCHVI
UniProt Q15418, sequence (whole entry, looked up): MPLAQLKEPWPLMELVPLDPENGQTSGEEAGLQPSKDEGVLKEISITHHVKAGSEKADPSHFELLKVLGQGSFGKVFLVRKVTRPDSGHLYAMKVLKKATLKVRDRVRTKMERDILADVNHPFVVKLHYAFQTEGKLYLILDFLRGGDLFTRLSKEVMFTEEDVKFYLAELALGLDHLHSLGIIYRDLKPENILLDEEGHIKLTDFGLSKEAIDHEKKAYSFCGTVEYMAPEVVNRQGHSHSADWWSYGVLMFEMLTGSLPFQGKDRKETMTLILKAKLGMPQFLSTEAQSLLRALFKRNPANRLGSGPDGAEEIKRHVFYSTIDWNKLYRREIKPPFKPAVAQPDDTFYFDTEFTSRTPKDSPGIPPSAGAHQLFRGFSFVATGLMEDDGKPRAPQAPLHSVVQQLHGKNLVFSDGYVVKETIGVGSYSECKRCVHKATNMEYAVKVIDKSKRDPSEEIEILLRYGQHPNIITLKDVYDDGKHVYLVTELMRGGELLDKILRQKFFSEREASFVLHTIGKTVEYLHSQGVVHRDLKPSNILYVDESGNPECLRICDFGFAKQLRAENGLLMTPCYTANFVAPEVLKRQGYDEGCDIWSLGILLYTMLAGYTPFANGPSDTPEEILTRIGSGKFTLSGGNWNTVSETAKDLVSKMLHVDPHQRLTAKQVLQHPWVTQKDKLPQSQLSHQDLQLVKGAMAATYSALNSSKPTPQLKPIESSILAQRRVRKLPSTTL
UniProt P49674, sequence (whole entry, looked up): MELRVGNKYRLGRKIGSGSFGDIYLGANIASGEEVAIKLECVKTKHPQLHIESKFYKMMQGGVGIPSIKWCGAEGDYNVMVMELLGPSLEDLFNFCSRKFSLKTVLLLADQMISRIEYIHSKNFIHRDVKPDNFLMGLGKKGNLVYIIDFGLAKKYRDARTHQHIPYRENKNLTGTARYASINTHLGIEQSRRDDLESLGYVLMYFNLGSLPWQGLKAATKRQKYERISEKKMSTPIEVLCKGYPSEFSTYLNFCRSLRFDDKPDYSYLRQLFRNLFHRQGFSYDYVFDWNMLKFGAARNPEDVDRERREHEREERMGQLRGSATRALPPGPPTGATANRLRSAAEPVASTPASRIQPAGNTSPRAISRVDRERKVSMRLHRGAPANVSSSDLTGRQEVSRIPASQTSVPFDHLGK
UniProt P22607, sequence (whole entry, unmodified, looked up): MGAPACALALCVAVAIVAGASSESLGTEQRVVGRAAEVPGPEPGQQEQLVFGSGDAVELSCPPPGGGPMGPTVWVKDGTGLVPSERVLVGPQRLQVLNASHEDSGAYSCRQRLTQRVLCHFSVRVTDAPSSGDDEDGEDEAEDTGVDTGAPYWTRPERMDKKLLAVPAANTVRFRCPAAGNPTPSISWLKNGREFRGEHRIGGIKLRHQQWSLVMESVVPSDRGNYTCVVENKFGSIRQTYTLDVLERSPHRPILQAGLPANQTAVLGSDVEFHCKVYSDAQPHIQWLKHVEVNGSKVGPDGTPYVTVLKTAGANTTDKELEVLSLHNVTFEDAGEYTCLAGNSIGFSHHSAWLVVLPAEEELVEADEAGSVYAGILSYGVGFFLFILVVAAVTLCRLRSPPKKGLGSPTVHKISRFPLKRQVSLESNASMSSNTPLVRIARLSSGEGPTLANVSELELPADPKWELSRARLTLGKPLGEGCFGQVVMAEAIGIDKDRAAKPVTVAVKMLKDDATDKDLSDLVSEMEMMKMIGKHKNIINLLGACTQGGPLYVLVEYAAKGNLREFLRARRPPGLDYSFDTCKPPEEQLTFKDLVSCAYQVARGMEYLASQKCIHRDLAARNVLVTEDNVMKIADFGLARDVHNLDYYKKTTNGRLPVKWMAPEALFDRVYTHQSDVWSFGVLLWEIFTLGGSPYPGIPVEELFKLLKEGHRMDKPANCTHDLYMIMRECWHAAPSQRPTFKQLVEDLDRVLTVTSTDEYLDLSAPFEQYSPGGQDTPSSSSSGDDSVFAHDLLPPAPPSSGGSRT
UniProt Q15349, sequence (whole entry, looked up): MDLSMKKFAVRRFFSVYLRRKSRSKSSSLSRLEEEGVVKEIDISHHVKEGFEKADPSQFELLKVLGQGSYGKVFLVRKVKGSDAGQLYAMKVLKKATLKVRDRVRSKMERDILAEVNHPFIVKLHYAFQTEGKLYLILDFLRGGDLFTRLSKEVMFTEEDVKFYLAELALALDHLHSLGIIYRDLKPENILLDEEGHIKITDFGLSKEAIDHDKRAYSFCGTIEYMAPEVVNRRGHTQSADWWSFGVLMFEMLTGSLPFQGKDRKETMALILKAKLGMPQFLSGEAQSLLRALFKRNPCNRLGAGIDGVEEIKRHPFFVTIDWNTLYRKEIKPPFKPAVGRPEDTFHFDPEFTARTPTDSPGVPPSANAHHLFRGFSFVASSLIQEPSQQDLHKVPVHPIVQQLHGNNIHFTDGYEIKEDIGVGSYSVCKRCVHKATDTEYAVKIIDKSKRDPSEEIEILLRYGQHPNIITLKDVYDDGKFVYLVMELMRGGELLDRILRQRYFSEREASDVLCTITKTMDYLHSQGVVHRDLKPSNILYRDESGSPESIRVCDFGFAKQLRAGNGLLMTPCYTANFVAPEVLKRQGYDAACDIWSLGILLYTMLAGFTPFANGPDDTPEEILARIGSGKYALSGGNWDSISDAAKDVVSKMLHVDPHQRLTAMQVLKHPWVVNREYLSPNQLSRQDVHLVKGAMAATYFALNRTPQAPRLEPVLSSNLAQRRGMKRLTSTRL
UniProt Q00526, sequence (whole entry, looked up): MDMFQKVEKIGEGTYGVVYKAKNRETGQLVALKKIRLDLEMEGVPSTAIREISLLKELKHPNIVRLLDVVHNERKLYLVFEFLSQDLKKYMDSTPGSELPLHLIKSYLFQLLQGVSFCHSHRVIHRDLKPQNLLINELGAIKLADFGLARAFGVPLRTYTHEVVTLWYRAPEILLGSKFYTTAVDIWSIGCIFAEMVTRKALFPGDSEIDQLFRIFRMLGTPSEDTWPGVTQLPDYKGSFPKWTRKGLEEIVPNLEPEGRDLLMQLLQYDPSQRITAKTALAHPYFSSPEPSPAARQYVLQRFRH
UniProt P23443, sequence (whole entry, looked up): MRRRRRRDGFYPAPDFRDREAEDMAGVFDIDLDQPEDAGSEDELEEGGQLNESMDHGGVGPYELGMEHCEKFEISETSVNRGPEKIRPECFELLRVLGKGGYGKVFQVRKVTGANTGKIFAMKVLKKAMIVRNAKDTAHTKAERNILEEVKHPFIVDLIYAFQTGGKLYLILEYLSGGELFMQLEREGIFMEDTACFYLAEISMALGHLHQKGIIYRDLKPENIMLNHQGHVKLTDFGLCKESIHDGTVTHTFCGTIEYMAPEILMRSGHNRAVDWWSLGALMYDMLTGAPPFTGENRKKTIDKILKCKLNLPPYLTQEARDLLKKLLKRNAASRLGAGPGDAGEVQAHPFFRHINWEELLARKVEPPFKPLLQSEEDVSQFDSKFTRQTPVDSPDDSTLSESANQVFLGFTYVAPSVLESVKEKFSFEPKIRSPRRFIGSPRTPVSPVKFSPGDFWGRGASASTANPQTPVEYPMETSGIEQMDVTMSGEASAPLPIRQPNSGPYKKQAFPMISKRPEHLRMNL

Block 1
Structure (SMILES): CC#CC(=O)N1CCC[C@H]1c1nc(-c2ccc(C(=O)Nc3ccccn3)cc2)c2c(N)nccn12
Action: inhibitor
Concentration: 1 µM
target	observed	inhibition
Ribosomal protein S6 kinase alpha-2, kinase domain 2 (RPS6KA2, Homo sapiens, UniProt Q15349)	–	0%
Tyrosine-protein kinase Fgr (FGR, Homo sapiens, UniProt P09769)	enzyme activity	15%
RAC-gamma serine/threonine-protein kinase (AKT3, Homo sapiens, UniProt Q9Y243)	enzyme activity	0%
Platelet-derived growth factor receptor beta (PDGFRB, Homo sapiens, UniProt P09619)	enzyme activity	6%
Proto-oncogene tyrosine-protein kinase ROS (ROS1, Homo sapiens, UniProt P08922)	enzyme activity	0%
Myosin-IIIa (MYO3A, Homo sapiens, UniProt Q8NEV4)	enzyme activity	12%
SNF-related serine/threonine-protein kinase (SNRK, Homo sapiens, UniProt Q9NRH2)	enzyme activity	0%
Casein kinase I isoform epsilon (CSNK1E, Homo sapiens, UniProt P49674)	enzyme activity	1%
Ribosomal protein S6 kinase beta-1 (RPS6KB1, Homo sapiens, UniProt P23443)	enzyme activity	1%
Serine/threonine-protein kinase ULK3 (ULK3, Homo sapiens, UniProt Q6PHR2)	enzyme activity	12%

Block 2
Structure (SMILES): COc1ccc2[nH]c3c4[nH]c5ccc(OC)cc5c4c4c(c3c2c1)C(=O)NC4=O
Concentration: 1 µM
target	method	notes	baseline	remaining binding [%]
Mast/stem cell growth factor receptor Kit (KIT, Homo sapiens, UniProt P10721)	competitive binding scan	autoinhibited form	–	72
G protein-coupled receptor kinase 3 (GRK3, Homo sapiens, UniProt P35626)	competitive binding panel	–	vehicle	70
SNF-related serine/threonine-protein kinase (SNRK, Homo sapiens, UniProt Q9NRH2)	competitive binding panel	–	vehicle	56
Membrane-associated tyrosine- and threonine-specific cdc2-inhibitory kinase (PKMYT1, Homo sapiens, UniProt Q99640)	competitive binding panel	–	vehicle	97
Glycogen synthase kinase-3 alpha (GSK3A, Homo sapiens, UniProt P49840)	competitive binding panel	–	vehicle	100
Dual specificity protein kinase CLK3 (CLK3, Homo sapiens, UniProt P49761)	competitive binding panel	–	vehicle	79
Serine/threonine-protein kinase MARK2 (MARK2, Homo sapiens, UniProt Q7KZI7)	competitive binding panel	–	vehicle	71
Tyrosine-protein kinase TXK (TXK, Homo sapiens, UniProt P42681)	competitive binding panel	–	vehicle	100

Block 3
Compound: CN1CCC[C@H]1COc1nc2c(c(N3CCN(S(C)(=O)=O)[C@@H](CC#N)C3)n1)CCN(c1cccc3cccc(Cl)c13)C2
Cell line: HEK293
Method: CellTiter-Glo
Baseline: vehicle
concentration	viability
20 µM	5.75% and 11.4% and 6.28%
2.5 µM	52.2% and 40.4% and 48.8%
10 µM	19.1% and 17.7% and 21%
312 nM	102% and 105%
625 nM	108% and 109% and 95.9%

Block 4
SMILES: Cc1nc(Cc2cccc(C(F)(F)F)c2)sc1-c1ccc(C(N)=O)nc1
Method: competition with immobilised ligand
Concentration: 1 µM
target	observed	remaining binding [%]
Tyrosine-protein kinase BTK (BTK, Homo sapiens, UniProt Q06187)	cell-free assay	100
Cyclin-dependent kinase 3 (CDK3, Homo sapiens, UniProt Q00526)	cell-free assay	88
Mitogen-activated protein kinase 12 (MAPK12, Homo sapiens, UniProt P53778)	cell-free assay	100
G protein-coupled receptor kinase 3 (GRK3, Homo sapiens, UniProt P35626)	cell-free assay	100
Mitogen-activated protein kinase 9 (MAPK9, Homo sapiens, UniProt P45984)	cell-free assay	100
Tyrosine-protein kinase ABL1, phosphorylated (ABL1, Homo sapiens, UniProt P00519, T315I)	cell-free assay	100
Mitogen-activated protein kinase kinase kinase 13 (MAP3K13, Homo sapiens, UniProt O43283)	cell-free assay	100
G protein-coupled receptor kinase 4 (GRK4, Homo sapiens, UniProt P32298)	cell-free assay	100
Serine/threonine-protein kinase pim-2 (PIM2, Homo sapiens, UniProt Q9P1W9)	cell-free assay	64
Mitogen-activated protein kinase kinase kinase 10 (MAP3K10, Homo sapiens, UniProt Q02779)	cell-free assay	71
Calcium/calmodulin-dependent protein kinase kinase 1 (CAMKK1, Homo sapiens, UniProt Q8N5S9)	cell-free assay	98
Serine/threonine-protein kinase PAK 3 (PAK3, Homo sapiens, UniProt O75914)	cell-free assay	100
Epidermal growth factor receptor (EGFR, Homo sapiens, UniProt P00533, del746-750)	binding	0
Protein kinase C eta type (PRKCH, Homo sapiens, UniProt P24723)	cell-free assay	83
Ribosomal protein S6 kinase alpha-1, N-terminal kinase domain (RPS6KA1, Homo sapiens, UniProt Q15418)	cell-free assay	79
Ribosomal protein S6 kinase alpha-1, C-terminal kinase domain (RPS6KA1, Homo sapiens, UniProt Q15418)	cell-free assay	100
Ephrin type-A receptor 3 (EPHA3, Homo sapiens, UniProt P29320)	cell-free assay	88
Tyrosine-protein kinase ITK/TSK (ITK, Homo sapiens, UniProt Q08881)	cell-free assay	100
Macrophage-stimulating protein receptor (MST1R, Homo sapiens, UniProt Q04912)	cell-free assay	100
Mitogen-activated protein kinase 15 (MAPK15, Homo sapiens, UniProt Q8TD08)	cell-free assay	100
Fibroblast growth factor receptor 3 (FGFR3, Homo sapiens, UniProt P22607, G697C)	cell-free assay	76
TGF-beta receptor type-2 (TGFBR2, Homo sapiens, UniProt P37173)	cell-free assay	100
Serine/threonine-protein kinase SIK3 (SIK3, Homo sapiens, UniProt Q9Y2K2)	cell-free assay	75
Tyrosine-protein kinase JAK1, JH1 (JAK1, Homo sapiens, UniProt P23458)	cell-free assay	86
Serine/threonine-protein kinase 25 (STK25, Homo sapiens, UniProt O00506)	cell-free assay	88

Block 5
Cell line: mouse MPNST tumor cells
Method: high-content nuclear imaging
Measured: cell number
Concentration: 10 µM
Time: 12 h
Notes: mean of 2 replicates
Baseline: plate mean
Reading: higher = more cells
SMILES	nuclei count
CC[C@@H]([C@H](C)O)n1ncn(-c2ccc(N3CCN(c4ccc(OC[C@@H]5CO[C@@](Cn6cncn6)(c6ccc(F)cc6F)C5)cc4)CC3)cc2)c1=O	-4.06 z-score
Cc1ccc(Cl)c(Nc2ccccc2C(=O)O)c1Cl	2.67 z-score and 2.38 z-score
COCC(=O)Nc1c(I)c(C(=O)NCC(O)CO)c(I)c(C(=O)N(C)CC(O)CO)c1I (centres unmarked)	-0.63 z-score
CO[C@@]1(NC(=O)Cc2cccs2)C(=O)N2C(C(=O)O)=C(COC(N)=O)CS[C@@H]21	-0.115 z-score
CO[C@H]1/C=C/O[C@@]2(C)Oc3c(C)c(O)c4c(O)c(c5c(nc6cc(C)ccn65)c4c3C2=O)NC(=O)/C(C)=C\C=C\[C@H](C)[C@H](O)[C@@H](C)[C@@H](O)[C@@H](C)[C@H](OC(C)=O)[C@@H]1C	0.153 z-score
C[C@H](Nc1cc2c(-c3ccc4c(c3)OCO4)noc2cn1)c1ccccc1	0.473 z-score
CCCCCN(CCCOC)C(=O)C(CCC(=O)O)NC(=O)c1ccc(Cl)c(Cl)c1 (centres unmarked)	0.951 z-score
CCN1CCN(C(=O)N[C@@H](C(=O)N[C@@H]2C(=O)N3[C@@H]2SC(C)(C)[C@@H]3C(=O)O)c2ccccc2)C(=O)C1=O	1.85 z-score

Repeated from above (block 4):
target	observed	remaining binding [%]
Macrophage-stimulating protein receptor (MST1R, Homo sapiens, UniProt Q04912)	cell-free assay	100
Calcium/calmodulin-dependent protein kinase kinase 1 (CAMKK1, Homo sapiens, UniProt Q8N5S9)	cell-free assay	98
Serine/threonine-protein kinase 25 (STK25, Homo sapiens, UniProt O00506)	cell-free assay	88
Mitogen-activated protein kinase kinase kinase 13 (MAP3K13, Homo sapiens, UniProt O43283)	cell-free assay	100
Tyrosine-protein kinase BTK (BTK, Homo sapiens, UniProt Q06187)	cell-free assay	100
Epidermal growth factor receptor (EGFR, Homo sapiens, UniProt P00533, del746-750)	binding	0
